{"data": "Assay results from different studies", "note": "A part holds a random share of what one study measured. Changes are numbered by the printed parent chain."}
{"data": "Series 1", "target": "RNA binding protein fox-1 homolog 2, RRM domain, GST-SBP tag (RBFOX2, Homo sapiens, UniProt O43251-10, residues 100-194)", "method": "RNA Bind-n-Seq", "molecule type": "RNA", "sample": "in vitro", "tested at": "365 nM", "notes": "natural RNA segment, single round, ends assumed", "baseline": "no-protein control", "direction": "higher = stronger binding", "shared flanks, not repeated": "GGGAGUUCUACAGUCCGACGAUC … UGGAAUUCUCGGGUGCCAA"}
{"Oligonucleotide": "GAGUCUCCUGCCUGCCCACAGAGCAGAGAACCAGUGCACGCUCUUAAGAGAAACUACUUGGCCAAACUGGCCAAGACGCAGCAAGCAGCAGCAGGAACAAAGCAGGCUUA", "RBNS enrichment (R)": 0.392}
{"Oligonucleotide": "CUGUGGGCUGACUGCCCUCCGAAGAGAGUUCUGGAUGUCUGGCUCAAAGCAGCAGGACUGUGGGAAAGAGCCUAACAUCUCCAUGGGGAGGCCUCACCCCAGGGACAGGG", "RBNS enrichment (R)": 0.681}
{"Oligonucleotide": "AGGGAGAACUGGUUGUGUAUUUAAGAGAAAUGAGAGUGCAUUGCAAAGUAGUUUCCCAAGGCAUUUCCCCUAUUGUUUACAUGGUCAAAAGGAAAAUCAAAAUCACUUCU", "RBNS enrichment (R)": 0.392}
{"Oligonucleotide": "UAUUCCCUGACAUUUUCUUCCAUGUAGCCAUAAGCAGGGACCCAGCAUACAAUUCUUCUUACCUAGGAAUCAGGAACUAGUCCCAAAUAUACAGGAUUGAGUCAUGGUUU", "RBNS enrichment (R)": 0.567}
{"Oligonucleotide": "UUCUGCUGCCAUACUCCCCUAGAACUGCUCGAACCCCCGUGCUUUUCUUUUUCUUCAUCUCCUUUUGCCCGUUAUGAUUUUCCUAUUCUGCAAAUACUGUCUUUCCUGGA", "RBNS enrichment (R)": 1.26}
{"Oligonucleotide": "GGGGGGGUUAAUUUAUCAUUUAGAAAUCUUGCAUUUUCAAAAAUCCAGUGCAAGCGCCAGGUGAUCUGUGUCUGAGGAUACGAUUUUGAACCUUAUGAGCAGUGUACAAA", "RBNS enrichment (R)": 0.623}
{"Oligonucleotide": "CUCUAGAGGCCAAGCAUCUGAUGAAAAGAGCCUGCCUAGAGAUUUUAUUCCGGCAGCACAUAAACAGAUGACUCAUGCUGUGAGAGGUAAGACAGUGUGUAGCAGCCCUG", "RBNS enrichment (R)": 0.384}
{"Oligonucleotide": "CAGUUUCUAUGUAUGAUACGAGUUGCUUACACGAUGCAUGGCUAACUUGUUAAUUUAGUUUUCUCCUUAGAGACUUUGAGACCCUUAAGAGACAAGAUUGAGAAAGAGCC", "RBNS enrichment (R)": 4.06}
{"Oligonucleotide": "ACACUUCUGGGUUUUAGUUGGGAUUUUACAUAGCUUGCAUUUUAGUUCUUUGGUUCUUUGCUGUUUCUAUUAACCCAUAGCAUUAUUUUAAUAAAUGUUAUAAUACCAAC", "RBNS enrichment (R)": 0.735}
{"Oligonucleotide": "CCAUGCGUUUCUUCCACUGAGUCUUUCUUAGAUUAAAUCUCUCCCAGUUGUCCGUGAAGAGAAAGACAGUAUUUGCAGUGCCGAUGAUAUAGAGUGACUUGGAGAGAGAU", "RBNS enrichment (R)": 2.75}
{"Oligonucleotide": "GCCUUUGUUGCUGCUAACACUGGAGGUGGGCGUUCCUAGCUGCAGUGUGCUGCUAUGCCUCUCUGCCUAGGAACCAAAUUUUAAAGAAGUCAGAGACAUUUUGAGGUGGU", "RBNS enrichment (R)": 0.415}
{"Oligonucleotide": "GACAAAAGAAAGAGACAGACAGACAGACAGACAGAACAGGAAUUACAGUUGGCUUAGCAGGGAGGAUCUGUAGAGCUCUCGAUGAUCCUUCCUCCAUGUGUGUCCUGUGA", "RBNS enrichment (R)": 0.56}
{"data": "Series 2", "target": "Sal-like protein 4, full length isoform B (SALL4, Homo sapiens, UniProt Q9UJQ4-2, residues 1-616)", "method": "universal PBM", "molecule type": "double-stranded DNA, one strand shown", "sample": "in vitro", "tested at": "not given", "notes": "8-mer, flanks averaged, mean of replicates", "direction": "higher = stronger binding", "Target sequence (chain)": "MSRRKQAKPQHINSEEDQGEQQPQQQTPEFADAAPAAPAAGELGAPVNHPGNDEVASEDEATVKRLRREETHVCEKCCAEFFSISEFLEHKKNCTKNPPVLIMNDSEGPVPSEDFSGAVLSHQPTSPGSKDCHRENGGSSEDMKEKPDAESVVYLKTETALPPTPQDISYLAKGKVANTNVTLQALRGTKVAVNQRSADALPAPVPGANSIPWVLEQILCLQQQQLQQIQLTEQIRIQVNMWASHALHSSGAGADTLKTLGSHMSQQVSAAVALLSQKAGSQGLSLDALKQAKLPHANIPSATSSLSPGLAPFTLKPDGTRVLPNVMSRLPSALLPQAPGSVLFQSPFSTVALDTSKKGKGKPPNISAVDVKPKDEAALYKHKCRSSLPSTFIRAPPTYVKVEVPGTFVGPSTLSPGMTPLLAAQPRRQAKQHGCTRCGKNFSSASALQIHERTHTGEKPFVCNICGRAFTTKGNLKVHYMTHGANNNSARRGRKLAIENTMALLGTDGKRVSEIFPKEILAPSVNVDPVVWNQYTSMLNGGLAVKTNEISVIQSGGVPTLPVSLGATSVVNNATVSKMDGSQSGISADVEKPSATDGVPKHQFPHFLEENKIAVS"}
{"Oligonucleotide": "ATGCTCGA", "E-score": 0.116}
{"Oligonucleotide": "CCGTACGC", "E-score": -0.203}
{"Oligonucleotide": "ACCCCCGG", "E-score": -0.15}
{"Oligonucleotide": "GCCAGGCC", "E-score": -0.322}
{"Oligonucleotide": "AATCACCT", "E-score": 0.12}
{"Oligonucleotide": "GCACACGC", "E-score": -0.196}
{"Oligonucleotide": "ACCGTACT", "E-score": 0.0229}
{"Oligonucleotide": "ACCCTCCG", "E-score": -0.252}
{"Oligonucleotide": "CCCTAGAA", "E-score": 0.0344}
{"Oligonucleotide": "CATTTTCA", "E-score": 0.261}
{"Oligonucleotide": "CTTTACAA", "E-score": 0.0999}
{"Oligonucleotide": "AACCAGTC", "E-score": 0.00975}
{"Oligonucleotide": "TACACCAA", "E-score": 0.0177}
{"Oligonucleotide": "CCGGGTAC", "E-score": -0.308}
{"Oligonucleotide": "CCTACTCG", "E-score": -0.173}
{"Oligonucleotide": "ATTTCAGC", "E-score": 0.0911}
{"Oligonucleotide": "CTCCGCAC", "E-score": -0.222}
{"Oligonucleotide": "GGCGAAGA", "E-score": -0.173}
{"data": "Series 3", "target": "ABI1, truncated, D143A, DHFR fusion (Arabidopsis thaliana)", "method": "DHFR PCA, deep sequencing", "sample": "yeast", "notes": "methotrexate growth selection, single substitutions", "added": "(+)-ABA 0.11 µM", "baseline": "wild-type fitted maximum", "direction": "higher = stronger binding", "starting sequence": "PYL1, truncated, DHFR fusion (Arabidopsis thaliana); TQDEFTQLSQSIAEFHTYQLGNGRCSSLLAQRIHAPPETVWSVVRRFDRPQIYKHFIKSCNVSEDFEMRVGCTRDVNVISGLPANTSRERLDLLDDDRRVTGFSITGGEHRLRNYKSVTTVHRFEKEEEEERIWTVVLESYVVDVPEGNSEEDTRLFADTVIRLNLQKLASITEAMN"}
{"Change": "R69T", "relative binding score": "30.5%"}
{"Change": "P36I", "relative binding score": "-1.93%"}
{"Change": "L169T", "relative binding score": "3.18%"}
{"Change": "D144T", "relative binding score": "9.6%"}
{"Change": "E152F", "relative binding score": "1.14%"}
{"Change": "Q7P", "relative binding score": "7.86%"}
{"Change": "Q2T", "relative binding score": "40%"}
{"Change": "R98C", "relative binding score": "-8.11%"}
{"Change": "G81C", "relative binding score": "21.8%"}
{"Change": "R132S", "relative binding score": "60.8%"}
{"Change": "S11I", "relative binding score": "28.2%"}
{"Change": "V40G", "relative binding score": "2.71%"}
{"data": "Series 4", "target": "Histone acetyltransferase KAT6A, both winged helices, GST fusion (KAT6A, Homo sapiens, UniProt Q92794, residues 1-181)", "method": "protein binding microarray", "molecule type": "double-stranded DNA, one strand shown", "sample": "in vitro", "tested at": "not given", "notes": "8-mer, flanks averaged, mean of 2 arrays, mostly near background", "baseline": "not given", "direction": "higher = stronger binding", "Residues (chain)": "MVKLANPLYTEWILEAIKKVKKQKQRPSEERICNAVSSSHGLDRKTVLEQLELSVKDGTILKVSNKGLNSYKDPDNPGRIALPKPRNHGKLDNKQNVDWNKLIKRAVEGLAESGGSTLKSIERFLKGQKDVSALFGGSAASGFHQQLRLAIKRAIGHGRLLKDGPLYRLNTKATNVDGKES"}
{"Oligonucleotide": "GGACCCAC", "E-score": -0.012}
{"Oligonucleotide": "CGACAGCA", "E-score": 0.061}
{"Oligonucleotide": "CGGTTACC", "E-score": 0.166}
{"Oligonucleotide": "CATCATGA", "E-score": -0.218}
{"Oligonucleotide": "AATTTCAA", "E-score": -0.174}
{"Oligonucleotide": "GGGAACGA", "E-score": 0.0217}
{"Oligonucleotide": "CATATCAA", "E-score": -0.0958}
{"Oligonucleotide": "AACCTCCC", "E-score": -0.011}
{"Oligonucleotide": "CAGGGGAC", "E-score": -0.0318}
{"Oligonucleotide": "AGCTTGGG", "E-score": -0.253}
{"Oligonucleotide": "ATGCCGAC", "E-score": 0.289}
{"Oligonucleotide": "GTAGTCAC", "E-score": -0.0611}
{"Oligonucleotide": "AACCTACC", "E-score": -0.207}
{"Oligonucleotide": "AGAATAAA", "E-score": -0.18}
{"Oligonucleotide": "ACTAGAAT", "E-score": -0.0858}
{"Oligonucleotide": "CAGGTTAA", "E-score": -0.158}
{"Oligonucleotide": "ATTAGGGC", "E-score": -0.213}
{"Oligonucleotide": "GCGACGAA", "E-score": 0.00582}
{"Oligonucleotide": "AAATTGCG", "E-score": 0.227}
{"Oligonucleotide": "GGGATCCA", "E-score": 0.0548}
{"Oligonucleotide": "TACGTATA", "E-score": 0.0957}
{"Oligonucleotide": "AGATCAAC", "E-score": -0.198}
{"data": "Series 5", "target": "CCND3, cyclin fold, Cln2 fusion (human)", "method": "yeast growth competition, sequencing", "sample": "yeast", "notes": "weak parent motif", "baseline": "not given", "direction": "higher = stronger binding", "starting sequence": "PKN2 docking peptide (human); VSAVRKLDFSDTM; partner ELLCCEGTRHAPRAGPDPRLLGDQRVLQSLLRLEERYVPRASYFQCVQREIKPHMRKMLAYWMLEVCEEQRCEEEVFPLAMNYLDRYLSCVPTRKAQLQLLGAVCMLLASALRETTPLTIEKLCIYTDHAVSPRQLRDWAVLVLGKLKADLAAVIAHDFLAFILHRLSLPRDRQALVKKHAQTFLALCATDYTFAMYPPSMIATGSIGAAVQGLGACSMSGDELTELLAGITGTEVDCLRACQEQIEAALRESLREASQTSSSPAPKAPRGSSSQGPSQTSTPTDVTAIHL"}
{"Change": "T12K", "normalised enrichment score": 0.695}
{"Change": "S10Y", "normalised enrichment score": 0.806}
{"Change": "K6L", "normalised enrichment score": 0.311}
{"Change": "S2Y", "normalised enrichment score": 0.294}
{"Change": "D8R", "normalised enrichment score": 0.363}
{"Change": "T12L", "normalised enrichment score": 0.525}
{"Change": "K6H", "normalised enrichment score": 0.22}
{"Change": "S2M", "normalised enrichment score": 0.137}
{"Change": "R5F", "normalised enrichment score": 0.0209}
{"Change": "D11G", "normalised enrichment score": 0.494}
{"Change": "R5M", "normalised enrichment score": 0.466}
{"Change": "D8K", "normalised enrichment score": 0.577}
{"Change": "K6F", "normalised enrichment score": 0.24}
{"data": "Single results of other studies", "method": "cross-linking MS", "sample": "cell fractions"}
{"Molecule": "SMARCA5 (Homo sapiens, UniProt O60264)", "partner": "BAZ1A (Homo sapiens, UniProt Q9NRL2)", "added": "DSSO", "cross-linked residues": "K943 to K645"}
{"Molecule": "PPP1R12B (Homo sapiens, UniProt O60237)", "partner": "USO1 (Homo sapiens, UniProt O60763)", "added": "DHSO", "cross-linked residues": "D482 to E856"}
{"note": "For quick reference, copied from above (series 1):"}
{"Oligonucleotide": "CAGUUUCUAUGUAUGAUACGAGUUGCUUACACGAUGCAUGGCUAACUUGUUAAUUUAGUUUUCUCCUUAGAGACUUUGAGACCCUUAAGAGACAAGAUUGAGAAAGAGCC", "RBNS enrichment (R)": 4.06}
{"Oligonucleotide": "UAUUCCCUGACAUUUUCUUCCAUGUAGCCAUAAGCAGGGACCCAGCAUACAAUUCUUCUUACCUAGGAAUCAGGAACUAGUCCCAAAUAUACAGGAUUGAGUCAUGGUUU", "RBNS enrichment (R)": 0.567}
{"Oligonucleotide": "GCCUUUGUUGCUGCUAACACUGGAGGUGGGCGUUCCUAGCUGCAGUGUGCUGCUAUGCCUCUCUGCCUAGGAACCAAAUUUUAAAGAAGUCAGAGACAUUUUGAGGUGGU", "RBNS enrichment (R)": 0.415}
{"Oligonucleotide": "CUGUGGGCUGACUGCCCUCCGAAGAGAGUUCUGGAUGUCUGGCUCAAAGCAGCAGGACUGUGGGAAAGAGCCUAACAUCUCCAUGGGGAGGCCUCACCCCAGGGACAGGG", "RBNS enrichment (R)": 0.681}
{"Oligonucleotide": "AGGGAGAACUGGUUGUGUAUUUAAGAGAAAUGAGAGUGCAUUGCAAAGUAGUUUCCCAAGGCAUUUCCCCUAUUGUUUACAUGGUCAAAAGGAAAAUCAAAAUCACUUCU", "RBNS enrichment (R)": 0.392}
